{"data": "Values quoted from earlier work that unrelated publications cite", "note": "Each numbered part shows a few of the values that one paper quotes. ± marks the error that the study gave.", "chain of UniProt P42336 (whole entry, unmodified, looked up)": "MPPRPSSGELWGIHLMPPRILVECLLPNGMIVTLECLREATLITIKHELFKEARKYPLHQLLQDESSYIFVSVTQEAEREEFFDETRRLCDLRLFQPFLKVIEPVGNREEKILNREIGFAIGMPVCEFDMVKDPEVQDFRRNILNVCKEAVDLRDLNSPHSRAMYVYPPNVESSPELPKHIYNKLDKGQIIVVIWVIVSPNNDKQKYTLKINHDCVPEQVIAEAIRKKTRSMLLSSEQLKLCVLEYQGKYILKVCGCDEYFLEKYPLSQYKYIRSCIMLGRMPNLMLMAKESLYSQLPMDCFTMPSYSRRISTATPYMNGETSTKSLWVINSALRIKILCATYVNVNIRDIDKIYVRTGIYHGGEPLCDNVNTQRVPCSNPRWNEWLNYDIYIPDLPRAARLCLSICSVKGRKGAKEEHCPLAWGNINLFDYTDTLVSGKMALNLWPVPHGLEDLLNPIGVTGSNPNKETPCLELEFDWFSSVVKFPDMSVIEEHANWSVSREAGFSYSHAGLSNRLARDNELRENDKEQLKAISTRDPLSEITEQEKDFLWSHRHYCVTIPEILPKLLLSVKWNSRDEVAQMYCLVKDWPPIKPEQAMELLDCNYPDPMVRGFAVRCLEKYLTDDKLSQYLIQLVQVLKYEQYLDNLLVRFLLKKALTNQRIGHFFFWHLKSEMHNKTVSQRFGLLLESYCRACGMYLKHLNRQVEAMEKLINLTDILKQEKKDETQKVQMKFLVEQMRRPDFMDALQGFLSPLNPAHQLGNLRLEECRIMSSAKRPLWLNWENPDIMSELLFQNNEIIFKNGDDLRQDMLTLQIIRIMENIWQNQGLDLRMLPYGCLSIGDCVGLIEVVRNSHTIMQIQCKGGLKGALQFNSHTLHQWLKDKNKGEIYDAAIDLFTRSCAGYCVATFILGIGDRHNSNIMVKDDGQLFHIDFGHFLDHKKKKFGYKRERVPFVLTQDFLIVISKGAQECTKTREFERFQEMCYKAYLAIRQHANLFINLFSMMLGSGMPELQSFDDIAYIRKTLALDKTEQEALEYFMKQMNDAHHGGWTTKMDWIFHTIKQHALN", "chain of UniProt P30994 (whole entry, looked up)": "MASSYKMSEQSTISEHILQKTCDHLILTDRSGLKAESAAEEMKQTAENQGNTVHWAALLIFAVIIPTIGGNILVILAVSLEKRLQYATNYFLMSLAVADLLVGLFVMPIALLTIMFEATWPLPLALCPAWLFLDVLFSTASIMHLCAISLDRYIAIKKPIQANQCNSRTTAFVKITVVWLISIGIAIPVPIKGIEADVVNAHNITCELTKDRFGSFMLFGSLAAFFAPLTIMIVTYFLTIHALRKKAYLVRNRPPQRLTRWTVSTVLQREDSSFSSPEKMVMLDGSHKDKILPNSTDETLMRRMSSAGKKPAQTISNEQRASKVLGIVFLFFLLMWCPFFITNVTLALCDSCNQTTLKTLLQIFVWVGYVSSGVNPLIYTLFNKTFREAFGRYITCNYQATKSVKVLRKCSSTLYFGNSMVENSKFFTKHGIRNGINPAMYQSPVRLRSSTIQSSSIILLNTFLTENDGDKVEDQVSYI", "chain of UniProt Q9NSY1 (whole entry, looked up)": "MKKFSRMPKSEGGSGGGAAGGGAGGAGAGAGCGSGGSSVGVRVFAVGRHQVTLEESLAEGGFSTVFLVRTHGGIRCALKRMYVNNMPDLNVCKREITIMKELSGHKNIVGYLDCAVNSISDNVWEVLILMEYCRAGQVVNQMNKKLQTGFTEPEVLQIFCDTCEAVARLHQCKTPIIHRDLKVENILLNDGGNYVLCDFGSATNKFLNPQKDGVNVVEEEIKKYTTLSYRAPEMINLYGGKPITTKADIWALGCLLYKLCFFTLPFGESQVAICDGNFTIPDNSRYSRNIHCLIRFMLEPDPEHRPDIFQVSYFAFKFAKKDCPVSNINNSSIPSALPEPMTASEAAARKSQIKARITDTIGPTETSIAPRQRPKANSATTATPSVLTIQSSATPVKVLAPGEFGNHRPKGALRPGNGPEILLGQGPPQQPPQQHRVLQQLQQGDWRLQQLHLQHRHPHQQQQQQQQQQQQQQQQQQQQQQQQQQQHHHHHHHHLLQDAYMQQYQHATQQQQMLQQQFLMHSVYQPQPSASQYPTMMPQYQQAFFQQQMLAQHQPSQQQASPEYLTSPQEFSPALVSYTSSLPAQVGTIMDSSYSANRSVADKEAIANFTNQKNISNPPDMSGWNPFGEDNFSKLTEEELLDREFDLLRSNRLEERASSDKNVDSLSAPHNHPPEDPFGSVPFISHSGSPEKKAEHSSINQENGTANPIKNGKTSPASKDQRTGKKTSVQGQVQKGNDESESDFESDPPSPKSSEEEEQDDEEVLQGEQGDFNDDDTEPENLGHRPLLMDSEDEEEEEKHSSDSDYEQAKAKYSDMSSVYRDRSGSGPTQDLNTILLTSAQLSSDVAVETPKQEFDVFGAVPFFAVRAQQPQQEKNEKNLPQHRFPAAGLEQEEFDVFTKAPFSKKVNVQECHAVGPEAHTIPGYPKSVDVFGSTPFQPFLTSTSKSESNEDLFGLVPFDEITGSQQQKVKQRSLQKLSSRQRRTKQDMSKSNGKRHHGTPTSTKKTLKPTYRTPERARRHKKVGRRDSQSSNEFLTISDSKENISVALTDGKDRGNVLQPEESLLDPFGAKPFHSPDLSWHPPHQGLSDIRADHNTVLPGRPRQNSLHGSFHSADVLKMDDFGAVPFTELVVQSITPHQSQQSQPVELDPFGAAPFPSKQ"}
{"data": "Set 1", "target": "HLA class I histocompatibility antigen, A alpha chain, allele A*25:01 (Homo sapiens, UniProt P04439)", "read-out": "peptide-MHC binding", "form": "peptide"}
{"Molecule": "LPADPASVL", "IC50": "> 20 µM"}
{"Molecule": "WLYDLWGQL", "IC50": "> 20 µM"}
{"Molecule": "RSVWIPGRW", "IC50": "> 20 µM"}
{"Molecule": "LEGLADAIW", "IC50": "> 20 µM"}
{"Molecule": "YQAENSTAE", "IC50": "> 20 µM"}
{"Molecule": "AYSSWMYSY", "IC50": "> 20 µM"}
{"Molecule": "YQIEGAWRA", "IC50": "> 20 µM"}
{"Molecule": "GAWCYDYTV", "IC50": "> 20 µM"}
{"Molecule": "IVDCLTEMYY", "IC50": "> 20 µM"}
{"Molecule": "ILNRETLLDFV", "IC50": "> 20 µM"}
{"Molecule": "NSESGNSRY", "IC50": "> 20 µM"}
{"Molecule": "AQSDFMSWV", "IC50": "> 20 µM"}
{"Molecule": "KSLTTTMQFK", "IC50": "> 20 µM"}
{"Molecule": "VHYGQGWLY", "IC50": "> 20 µM"}
{"Molecule": "WQDGGWQSV", "IC50": "> 20 µM"}
{"Molecule": "RTFSILNRK", "IC50": "> 20 µM"}
{"Molecule": "EIKDRILSY", "IC50": "0.042 µM"}
{"Molecule": "TEAEKWPFF", "IC50": "> 20 µM"}
{"Molecule": "FPNLQVDPT", "IC50": "> 20 µM"}
{"Molecule": "YALTEYHAM", "IC50": "> 20 µM"}
{"Molecule": "ETWVETWAF", "IC50": "0.759 µM"}
{"Molecule": "KVGFIMLFH", "IC50": "> 20 µM"}
{"Molecule": "RQSSGSSSSGF", "IC50": "> 20 µM"}
{"Molecule": "EGFDPRALI", "IC50": "> 20 µM"}
{"Molecule": "AARHKHQVM", "IC50": "> 20 µM"}
{"data": "Single results of other studies"}
{"Compound": "NCCc1ccc(Oc2ccc(O)cc2)c(I)c1", "tested on": "rat TAAR1", "assay": "agonist", "measurement": "EC50", "value": "0.014 µM"}
{"Compound": "COc1ccc(C[C@H]2NC[C@H](O)[C@H]2OC(C)=O)cc1", "tested on": "Cryptosporidium", "measurement": "IC50", "value": "0.08 µM"}
{"Compound": "CC(C)=CCc1cc2c(cc1O)O[C@H](c1ccc(O)cc1)CC2=O", "tested on": "neuraminidase", "assay": "inhibitor", "measurement": "IC50", "value": "44.8 µM"}
{"Compound": "O=c1c(O)c(-c2ccc(O)c(O)c2)oc2cc(O)cc(O)c12", "tested on": "PRV", "assay": "viral replication", "measurement": "IC50", "value": "2.62 µM"}
{"Compound": "COc1ccc(-c2cnc3[nH]cc(C#Cc4cccnc4)c3c2)cc1OC", "tested on": "Huh-7", "measurement": "CC50", "value": "17 µM"}
{"Compound": "c1ccc2c(c1)Cc1ccccc1-2", "assay": "substrate", "system": "human liver microsomes", "measurement": "Vmax", "value": "1.36 nmol/min/mg"}
{"Compound": "Nc1cccc2c1C(=O)N(C1CCC(=O)NC1=O)C2=O (centres unmarked)", "system": "human, relapsed/refractory multiple myeloma", "setting": "alternate-day dosing", "measurement": "MTD", "value": "5 mg"}
{"Compound": "N#C/C(=C/c1ccc(O)c(O)c1)C(=O)NCc1ccccc1", "tested on": "hepatitis C virus", "system": "HCV-infected cells", "setting": "concentration not given", "measurement": "HCV RNA production", "value": "decreased"}
{"Compound": "O=C(Nc1nncn1C1CC1)[C@@H]1CCOc2ccccc21", "tested on": "main protease (Mpro)", "setting": "50 µM", "measurement": "inhibition", "value": "2.15%"}
{"Compound": "NS(=O)(=O)OC[C@@H]1C[C@@H](n2ccc3c(N[C@H]4CCc5ccccc54)ncnc32)C[C@@H]1O", "system": "human paediatric relapsed/refractory AML", "setting": "together with: azacitidine and fludarabine", "measurement": "MTD", "value": "20 mg/m²"}
{"Compound": "COc1cc(Cl)cc(CC(=O)Nc2cnccc2C)c1", "tested on": "main protease (Mpro)", "setting": "20 µM", "measurement": "inhibition", "value": "24.6%"}
{"Compound": "CC1OC1c1ccccc1C=CC(=O)O[C@H](C)[C@H](N)C(=O)O (some centres unmarked)", "tested on": "Tetranychus cinnabarinus", "assay": "acaricidal activity", "measurement": "LC50", "value": "48.5 µg/mL"}
{"Compound": "Nc1ncc(-c2nc(N3CCOCC3)nc(N3CCOCC3)n2)c(C(F)F)n1", "tested on": "Phosphatidylinositol 4,5-bisphosphate 3-kinase catalytic subunit alpha isoform (PIK3CA, Homo sapiens, UniProt P42336, E542K)", "assay": "KinomeScan competition binding", "setting": "10 µM", "measurement": "remaining binding", "value": "0%"}
{"Compound": "Cc1cccc2c1ccc1cc(C(C)C)ccc12", "assay": "substrate", "system": "human liver microsomes", "measurement": "Vmax", "value": "0.006 nmol/min/mg"}
{"Compound": "NC1CCCCC1N.O=C([O-])C(=O)[O-].[Pt+2] (centres unmarked)", "assay": "item: total platinum", "system": "mouse", "setting": "intravenous, 8.34 mg Pt/kg", "measurement": "clearance", "value": "14.4 mL/min/kg"}
{"Compound": "COc1cc(C[C@@H](C)N)c(OC)cc1I", "tested on": "5-hydroxytryptamine receptor 2B (Rattus norvegicus, UniProt P30994)", "assay": "contraction, agonist", "system": "rat stomach fundus", "measurement": "EC50", "value": "0.0119 µM"}
{"Compound": "Clc1ccc(Nc2nc3ccccc3c3nc(C4CCCCC4)[nH]c23)cc1Cl", "tested on": "other adenosine receptors", "setting": "concentration not given", "measurement": "activity", "value": "inactive"}
{"Compound": "COc1ncccc1-c1cnn2ccc(N3CCN(C(=O)OC(C)C)CC3)nc12", "tested on": "BMP-2-inducible protein kinase (BMP2K, Homo sapiens, UniProt Q9NSY1)", "setting": "literature value", "measurement": "IC50", "value": "0.014 µM"}
{"Compound": "C[C@]12CCC(=O)C=C1CC[C@@H]1[C@@H]2CC[C@]2(C)C(=O)CC[C@@H]12", "tested on": "aromatase (CYP19A1, human placenta)", "assay": "substrate", "measurement": "Km", "value": "0.06 µM"}
{"Compound": "Cc1nc(Nc2ncc(C(=O)Nc3c(C)cccc3Cl)s2)cc(N2CCN(CCO)CC2)n1", "system": "human children", "setting": "twice daily single agent", "measurement": "maximum tolerated dose", "value": "85 mg/m² per dose"}
{"Compound": "Nc1nc2c(c(=O)[nH]1)C[C@@H](CCc1ccc(C(=O)N[C@@H](CCC(=O)O)C(=O)O)cc1)CN2", "tested on": "SHMT2", "measurement": "Ki", "value": "12.2 µM"}
{"Compound": "Cc1cccc(-c2[nH]c(CNc3ccccc3F)nc2-c2ccc3ncnn3c2)n1", "system": "rat, female", "setting": "13 weeks, repeated dose", "measurement": "NOAEL", "value": "10 mg/kg/day"}
{"Compound": "O=[N+]([O-])c1ccc(O)c([N+](=O)[O-])c1", "system": "human patients", "setting": "300 mg/day, food intake unaltered", "measurement": "weight loss", "value": "2 to 3 pounds/week"}
{"Compound": "Cc1sc2c(c1C)C(c1ccc(Cl)cc1)=N[C@@H](CC(=O)OC(C)(C)C)c1nnc(C)n1-2", "system": "mouse", "setting": "intravenous, 5 mg/kg", "measurement": "clearance", "value": "39.2 mL/min/kg"}
{"Compound": "N.N.[Cl][Pt][Cl]", "tested on": "PATU", "measurement": "IC50", "value": "20.7 ± 3.1 µM"}
